Published values of several laboratories.
Each line is one published result; not all experiments were run side by side. ± gives the spread as reported.
gag-pol integrase: Gag-Pol polyprotein, integrase (gag-pol, Human immunodeficiency virus 1, UniProt P12497)
BCHE: Cholinesterase (BCHE, Homo sapiens, UniProt P06276)
Chain of UniProt P06276 (whole entry, looked up): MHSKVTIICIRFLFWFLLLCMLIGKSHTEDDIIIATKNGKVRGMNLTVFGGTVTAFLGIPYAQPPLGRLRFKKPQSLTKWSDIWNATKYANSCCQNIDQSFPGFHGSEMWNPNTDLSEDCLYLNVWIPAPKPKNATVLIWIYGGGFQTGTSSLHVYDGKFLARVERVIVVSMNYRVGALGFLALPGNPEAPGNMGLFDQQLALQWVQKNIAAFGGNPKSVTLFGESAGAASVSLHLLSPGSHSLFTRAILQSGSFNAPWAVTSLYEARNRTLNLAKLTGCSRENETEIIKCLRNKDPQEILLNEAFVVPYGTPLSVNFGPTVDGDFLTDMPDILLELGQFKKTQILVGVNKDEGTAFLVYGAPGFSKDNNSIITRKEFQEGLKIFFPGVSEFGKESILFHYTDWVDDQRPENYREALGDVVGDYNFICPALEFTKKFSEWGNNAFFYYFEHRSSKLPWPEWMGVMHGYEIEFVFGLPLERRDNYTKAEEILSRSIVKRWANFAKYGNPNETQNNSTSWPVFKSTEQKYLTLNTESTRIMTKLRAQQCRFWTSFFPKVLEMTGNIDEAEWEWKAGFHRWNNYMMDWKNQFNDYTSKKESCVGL
Chain of UniProt O75116 (whole entry, looked up): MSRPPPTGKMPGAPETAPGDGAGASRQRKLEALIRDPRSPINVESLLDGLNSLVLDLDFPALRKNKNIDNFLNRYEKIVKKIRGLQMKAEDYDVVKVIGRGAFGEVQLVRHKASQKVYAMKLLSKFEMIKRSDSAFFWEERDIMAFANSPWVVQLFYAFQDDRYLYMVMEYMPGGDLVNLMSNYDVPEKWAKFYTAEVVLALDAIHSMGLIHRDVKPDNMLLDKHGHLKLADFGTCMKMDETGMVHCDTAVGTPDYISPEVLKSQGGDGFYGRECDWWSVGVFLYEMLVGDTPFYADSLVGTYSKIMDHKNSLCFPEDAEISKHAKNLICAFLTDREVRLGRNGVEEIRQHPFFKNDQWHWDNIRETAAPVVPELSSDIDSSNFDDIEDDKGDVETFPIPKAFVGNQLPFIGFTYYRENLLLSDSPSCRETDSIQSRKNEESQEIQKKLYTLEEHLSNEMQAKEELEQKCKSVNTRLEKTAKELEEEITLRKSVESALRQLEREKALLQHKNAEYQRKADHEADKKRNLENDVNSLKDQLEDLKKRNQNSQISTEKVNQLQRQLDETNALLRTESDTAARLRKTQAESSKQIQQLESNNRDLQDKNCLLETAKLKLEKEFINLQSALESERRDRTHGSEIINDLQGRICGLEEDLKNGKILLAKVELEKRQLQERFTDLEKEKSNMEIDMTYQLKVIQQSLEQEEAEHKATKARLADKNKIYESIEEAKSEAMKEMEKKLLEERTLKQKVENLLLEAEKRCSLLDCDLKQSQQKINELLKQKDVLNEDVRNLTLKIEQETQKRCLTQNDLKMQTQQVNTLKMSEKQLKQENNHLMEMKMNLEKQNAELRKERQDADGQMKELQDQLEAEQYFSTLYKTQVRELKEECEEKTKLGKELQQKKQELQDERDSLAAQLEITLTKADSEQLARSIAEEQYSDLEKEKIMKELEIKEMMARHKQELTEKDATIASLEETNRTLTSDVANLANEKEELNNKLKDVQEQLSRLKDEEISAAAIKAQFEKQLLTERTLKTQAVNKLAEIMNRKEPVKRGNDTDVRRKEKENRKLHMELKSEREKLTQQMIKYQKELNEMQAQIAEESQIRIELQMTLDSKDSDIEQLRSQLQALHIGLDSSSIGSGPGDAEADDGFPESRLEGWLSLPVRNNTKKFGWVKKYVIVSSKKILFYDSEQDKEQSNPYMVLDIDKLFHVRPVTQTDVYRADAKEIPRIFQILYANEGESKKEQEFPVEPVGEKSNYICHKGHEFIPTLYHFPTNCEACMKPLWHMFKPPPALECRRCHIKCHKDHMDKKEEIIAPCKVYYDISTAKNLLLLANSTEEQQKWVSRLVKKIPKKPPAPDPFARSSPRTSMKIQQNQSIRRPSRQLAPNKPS
Chain of UniProt P06401 (whole entry, looked up): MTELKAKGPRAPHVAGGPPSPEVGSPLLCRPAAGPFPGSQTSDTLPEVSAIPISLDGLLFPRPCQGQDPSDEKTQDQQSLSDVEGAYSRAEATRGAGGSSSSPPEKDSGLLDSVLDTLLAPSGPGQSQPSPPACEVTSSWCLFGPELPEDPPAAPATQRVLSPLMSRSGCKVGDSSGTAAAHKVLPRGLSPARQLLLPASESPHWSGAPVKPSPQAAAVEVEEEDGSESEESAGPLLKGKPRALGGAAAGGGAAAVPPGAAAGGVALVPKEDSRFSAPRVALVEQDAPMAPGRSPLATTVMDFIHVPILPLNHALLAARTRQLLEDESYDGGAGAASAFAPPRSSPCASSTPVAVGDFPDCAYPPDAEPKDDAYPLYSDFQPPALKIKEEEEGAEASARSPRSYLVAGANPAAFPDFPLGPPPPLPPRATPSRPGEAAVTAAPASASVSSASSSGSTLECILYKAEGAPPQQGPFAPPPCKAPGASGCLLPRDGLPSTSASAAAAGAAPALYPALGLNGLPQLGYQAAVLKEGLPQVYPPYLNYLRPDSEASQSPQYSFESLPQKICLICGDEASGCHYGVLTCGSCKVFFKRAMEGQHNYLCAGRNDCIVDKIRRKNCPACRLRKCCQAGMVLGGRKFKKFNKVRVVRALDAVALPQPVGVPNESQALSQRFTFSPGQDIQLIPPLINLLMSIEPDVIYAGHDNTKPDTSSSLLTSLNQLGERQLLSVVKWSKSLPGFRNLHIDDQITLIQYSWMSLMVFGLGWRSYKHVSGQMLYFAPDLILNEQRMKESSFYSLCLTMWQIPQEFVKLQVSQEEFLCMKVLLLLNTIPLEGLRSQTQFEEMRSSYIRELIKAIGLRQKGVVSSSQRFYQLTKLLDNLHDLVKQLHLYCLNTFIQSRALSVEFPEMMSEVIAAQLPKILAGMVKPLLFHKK
Chain of UniProt Q9Y466 (whole entry, looked up): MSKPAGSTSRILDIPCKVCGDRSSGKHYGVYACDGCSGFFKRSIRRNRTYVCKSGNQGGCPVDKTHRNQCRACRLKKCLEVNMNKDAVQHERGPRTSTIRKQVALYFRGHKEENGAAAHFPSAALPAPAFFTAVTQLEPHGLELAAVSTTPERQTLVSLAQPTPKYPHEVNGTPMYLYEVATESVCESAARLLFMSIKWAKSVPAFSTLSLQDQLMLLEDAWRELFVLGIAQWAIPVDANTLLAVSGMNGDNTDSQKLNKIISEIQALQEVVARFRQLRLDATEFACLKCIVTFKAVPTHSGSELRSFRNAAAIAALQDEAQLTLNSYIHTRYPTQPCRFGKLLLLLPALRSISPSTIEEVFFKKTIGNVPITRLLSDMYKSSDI
Chain of UniProt P21980 (whole entry, looked up): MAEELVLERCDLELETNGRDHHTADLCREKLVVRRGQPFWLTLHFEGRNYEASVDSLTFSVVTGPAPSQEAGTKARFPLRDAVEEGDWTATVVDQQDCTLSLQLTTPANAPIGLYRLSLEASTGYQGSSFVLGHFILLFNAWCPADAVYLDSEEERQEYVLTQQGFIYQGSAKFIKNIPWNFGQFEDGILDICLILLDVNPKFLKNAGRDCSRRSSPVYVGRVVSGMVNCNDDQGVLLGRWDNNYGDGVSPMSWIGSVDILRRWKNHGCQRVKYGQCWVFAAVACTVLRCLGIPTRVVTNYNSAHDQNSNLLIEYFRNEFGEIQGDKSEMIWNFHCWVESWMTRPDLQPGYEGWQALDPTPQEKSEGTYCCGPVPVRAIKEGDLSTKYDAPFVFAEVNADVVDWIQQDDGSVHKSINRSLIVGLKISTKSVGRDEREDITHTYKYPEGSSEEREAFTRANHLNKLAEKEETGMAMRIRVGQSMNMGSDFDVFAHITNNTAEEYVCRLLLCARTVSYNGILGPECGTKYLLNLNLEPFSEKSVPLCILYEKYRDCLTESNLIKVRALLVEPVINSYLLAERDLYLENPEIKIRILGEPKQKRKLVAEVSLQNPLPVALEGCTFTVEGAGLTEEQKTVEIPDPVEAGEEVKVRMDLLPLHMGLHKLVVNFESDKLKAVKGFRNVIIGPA

Structure (SMILES) | target | assay | test system | conditions | IC50
CC(C)C[C@H](NC(=O)[C@H](CC(C)C)NC(=O)[C@H](CCC(N)=O)NC(=O)[C@H](CO)NC(=O)[C@H](CC(N)=O)NC(=O)[C@H](Cc1ccc(O)cc1)NC(=O)[C@H](CCCNC(=N)N)NC(=O)[C@H](CCC(=O)O)NC(=O)[C@H](Cc1ccc(O)cc1)NC(=O)[C@H](CC(=O)O)NC(=O)[C@H](CC(C)C)NC(=O)[C@H](CC(N)=O)NC(=O)[C@@H](N)CC(C)C)C(=O)N[C@@H](CO)C(=O)O | HLA-DRA/HLA-DRB1 (Homo sapiens, UniProt P01903+P01911, V115G) |  |  |  | 0.004 µM
O=C(N/N=C/c1ccccc1O)c1cnccn1 | gag-pol integrase | strand transfer activity, inhibitor |  | wild-type integrase | > 100 µM
COc1ncccc1-c1cnn2ccc(N3CCN(C(=O)OC(C)C)CC3)nc12 | PGR (Homo sapiens, UniProt P06401) | liability screen |  |  | 94 µM
NNC(=O)Cn1cnc(-c2ccc(F)cc2)c1 | Gag-Pol polyprotein, integrase with LEDGF/p75 (gag-pol, Human immunodeficiency virus 1, UniProt P12497) | LEDGF/p75-integrase interaction, inhibitor, AlphaScreen |  |  | > 50 µM
O=C(NCCN1CCC2(CC1)C(=O)NCN2c1cccc(F)c1)c1ccc(F)c(F)c1 | BCHE | inhibitor, fluorometric |  |  | 0.71 ± 0.57 µM
Nc1c(S(=O)(=O)O)cc(Nc2ccc(Nc3nc(Cl)nc(Nc4cccc(S(=O)(=O)O)c4)n3)c(S(=O)(=O)O)c2)c2c1C(=O)c1ccccc1C2=O | TGM2 (Homo sapiens, UniProt P21980) | enzyme activity, inhibitor, BP incorporation |  | together with: no DTT, no Triton | 1.8 ± 0.4 µM
CC[C@H](C)[C@H](NC(=O)[C@@H](N)Cc1ccc(O)cc1)C(=O)NCC(=O)N1CCC[C@H]1C(=O)N[C@@H](CC(=O)O)C(=O)N[C@H](C(=O)N1CCC[C@H]1C(=O)N[C@@H](C)C(=O)N[C@@H](CC(C)C)C(=O)N[C@@H](CCCNC(=N)N)C(=O)N[C@H](C(=O)N[C@@H](CC(C)C)C(=O)N[C@@H](CO)C(=O)N[C@@H](CCC(=O)O)C(=O)N[C@@H](Cc1ccc(O)cc1)C(=O)N[C@@H](C)C(=O)N[C@@H](CCCNC(=N)N)C(=O)N1CCC[C@H]1C(=O)N[C@@H](Cc1c[nH]cn1)C(=O)N[C@H](C(=O)N[C@@H](CCSC)C(=O)N[C@@H](CO)C(=O)N1CCC[C@H]1C(=O)N[C@H](C(=O)O)[C@@H](C)O)C(C)C)[C@@H](C)O)[C@@H](C)O | Nuclear receptor subfamily 2 group E member 1, ligand-binding domain (NR2E1, Homo sapiens, UniProt Q9Y466) | atrophin peptide binding, inhibitor, AlphaScreen competition | ligand-binding domain | pH 7.4 | 74.3 µM
C[C@H]1CN(c2n[nH]c3nc(N[C@H]4CC[C@H](NS(=O)(=O)CCC(F)(F)F)CC4)ncc23)CCO1 | ROCK2 (Homo sapiens, UniProt O75116) | biochemical |  |  | ≥ 20 µM
O=C(N/N=C/c1ccc(Cl)cc1Cl)c1cnccn1 | gag-pol integrase | strand transfer activity, inhibitor |  | wild-type integrase | > 100 µM
COc1cc(Nc2ncc(F)c(Nc3ccc4c(n3)NC(=O)C(C)(C)O4)n2)cc(OC)c1OC | histone deacetylase | enzyme activity, inhibitor |  |  | > 10 µM
CC(C)OC(=O)c1cc2c(OCC(O)CNC(C)(C)C)cccc2[nH]1 (centres unmarked) | BCHE | inhibitor, fluorometric |  |  | 6.19 ± 3.19 µM
